Measured values from different studies.
“And” joins repeats or separate records; there may be more than shown. ± gives the spread as reported.
MDM4: Protein Mdm4 (MDM4, Homo sapiens, UniProt O15151)

Protein sequences, listed by entry. Tags and fused reporters are not part of them. Residues count along the entry.
UniProt O15151, 23-111 limits assumed: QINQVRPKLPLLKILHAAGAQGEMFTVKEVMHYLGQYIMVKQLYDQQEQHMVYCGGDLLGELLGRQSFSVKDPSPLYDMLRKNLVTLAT
UniProt Q16539, whole entry: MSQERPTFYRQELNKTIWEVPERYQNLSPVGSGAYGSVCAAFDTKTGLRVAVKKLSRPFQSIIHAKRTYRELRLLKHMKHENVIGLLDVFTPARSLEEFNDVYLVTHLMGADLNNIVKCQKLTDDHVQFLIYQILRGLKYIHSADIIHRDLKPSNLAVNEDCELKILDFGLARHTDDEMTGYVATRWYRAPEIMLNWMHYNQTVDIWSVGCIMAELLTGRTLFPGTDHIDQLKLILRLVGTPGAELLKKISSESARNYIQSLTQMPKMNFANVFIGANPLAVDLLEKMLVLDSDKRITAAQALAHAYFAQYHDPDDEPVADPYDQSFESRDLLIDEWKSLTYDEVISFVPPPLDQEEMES

Compound	target or system	test	system	conditions	scale	measurement	result
COc1cccc([C@@H]2N=C(c3ccc(OC)cc3OC(C)C)N(C(=O)N3CCNC(=O)C3)[C@@H]2c2ccc(Cl)cc2)c1 (relative stereo)	MDM4	isothermal titration calorimetry	–	298 K	–	Kd	12 ± 6 µM
CN(C)CCNC(=O)c1cc([N+](=O)[O-])cc2ccc(-c3ccccc3)nc12	MDA-MB-468	cytotoxicity, MTT	–	96 h	–	IC50	2.8 ± 1.1 µM
N#Cc1c(-c2ccc(Cl)cc2Cl)n(-c2nc(-c3ccc(Cl)cc3)c3c(NC(=O)c4ccccc4)nnc-3[nH]2)[nH]c1=O	SF-268	SRB	–	10 µM	–	cell growth	38.7%
CC[C@H](C)[C@H](NC(=O)[C@@H]1CCCN1C(=O)[C@H](Cc1c[nH]cn1)NC(=O)[C@@H](NC(=O)[C@H](Cc1ccc(O)c([125I])c1)NC(=O)[C@@H](NC(=O)[C@H](CCCNC(=N)N)NC(=O)CNC)C(C)C)[C@@H](C)CC)C(=O)O	AT2 receptor, human	saturation binding	H295R	concentration not given, with: losartan 10 µM	–	binding	not detected
C=C(C)C(=O)Nc1ccc(-c2c(-c3ccc(Oc4nccc(C)n4)c(F)c3)c3c(N)ncnc3n2C)cc1	EFM-19	cell growth, CellTiter-Glo	–	120 h, unit not given	baseline: untreated growth rate, higher = stronger inhibition	area over GR curve	0.307
COc1ccc(C2=N[C@@H](c3cccc(Cl)c3)[C@@H](c3ccc(Cl)cc3)N2C(=O)N2CCNC(=O)C2)c(OC(C)C)c1 (relative stereo)	MDM4	NMR HSQC titration	–	pH 6.5, 298 K, global fit	–	Kd	1.7 ± 1.1 µM
CN1C(=O)CCc2cc(CNC(C)(C)[C@@H](O)c3ccccc3)ccc21	–	–	male CD-1 mouse, plasma	subcutaneous, 10 mg/kg	–	AUC(0-t)	13300 ng·min/mL/g
Cc1c(Cn2c(C)nc3c(C(=O)O)cc(N4CCOCC4)cc32)cccc1C(F)(F)F	C4-2B	no effect, Western blot	–	5 µM	–	CDK6 protein level	no effect
CC(C)C[C@H](NC(=O)[C@H](C)NC(=O)[C@H](CCCNC(=N)N)NC(=O)[C@H](CCCNC(=N)N)NC(=O)[C@H](CCCNC(=N)N)NC(=O)[C@H](C)NC(=O)[C@H](CC(C)C)NC(=O)[C@H](CCCNC(=N)N)NC(=O)[C@H](CO)NC(=O)[C@H](CCCCN)NC(=O)[C@H](CO)NC(=O)Cn1cc(COC(=O)[C@]2(C)C=C(C(=O)OC(C)(C)C)C(=O)CC2)nn1)C(=O)O	Mitogen-activated protein kinase 14 (MAPK14, Homo sapiens, UniProt Q16539)	enzyme activity, inhibitor, D-SENSOR kinase	–	0.823 µM, unit not given	baseline: untreated	remaining activity	0.353 and 0.306 and 0.297
CC(=O)NCCCC[C@H](NC(=O)[C@H](CCCNC(=N)N)NC(=O)[C@H](C)NC(=O)[C@@H](NC(=O)[C@H](CCC(N)=O)NC(=O)[C@H](CCCCN)NC(=O)[C@@H](NC(=O)[C@H](CCCNC(=N)N)NC(=O)[C@H](C)N)[C@@H](C)O)[C@@H](C)O)C(=O)N[C@@H](CO)C(=O)N[C@H](C(=O)NCC(=O)O)[C@@H](C)O	human MORF PHD1/2 F287A	binding, NMR titration	–	298 K	–	interaction	inhibited
CC(C)CC(NC(=O)C(Cc1ccccc1)NC(=O)c1cnc(C(=O)NC(Cc2ccccc2)C(=O)NC(CC(C)C)B(O)O)cn1)B(O)O (stereo not shown)	proteasome (human)	trypsin-like activity, inhibitor, Proteasome-Glo	U-266	24 h	–	IC50	> 0.018 µM
CCOC(=O)c1c(-c2ccc(Cl)cc2Cl)n(-c2nc(-c3ccc(Cl)cc3)c3c(NC(=O)c4ccccc4)nnc-3[nH]2)[nH]c1=O	ACHN	SRB	–	10 µM	–	cell growth	12.5%
CC/C=C\C/C=C\CCC/C=C/C=C/C=C\CCCC(=O)O	NALM-6	flow cytometry	–	37.5 µM, 24 h	–	G1 phase cells	47.6%

Some of these lines once more:
Compound	target or system	test	system	conditions	scale	measurement	result
CC(=O)NCCCC[C@H](NC(=O)[C@H](CCCNC(=N)N)NC(=O)[C@H](C)NC(=O)[C@@H](NC(=O)[C@H](CCC(N)=O)NC(=O)[C@H](CCCCN)NC(=O)[C@@H](NC(=O)[C@H](CCCNC(=N)N)NC(=O)[C@H](C)N)[C@@H](C)O)[C@@H](C)O)C(=O)N[C@@H](CO)C(=O)N[C@H](C(=O)NCC(=O)O)[C@@H](C)O	human MORF PHD1/2 F287A	binding, NMR titration	–	298 K	–	interaction	inhibited
CN1C(=O)CCc2cc(CNC(C)(C)[C@@H](O)c3ccccc3)ccc21	–	–	male CD-1 mouse, plasma	subcutaneous, 10 mg/kg	–	AUC(0-t)	13300 ng·min/mL/g
